Results pooled from the literature.
Each line is one published result; not all experiments were run side by side. “And” joins repeats or separate records; there may be more than shown. ± gives the spread as reported.
Organism: SARS-CoV-2

For `CCOC(=O)N1CCC(=C2c3ccc(Cl)cc3CCc3cccnc32)CC1`, “viral replication inhibition” read “inactive” (concentration not given, Paris laboratory).
With `CC(C)CC(NC(=O)OCc1ccccc1)C(=O)NC(C(=O)NCC(=O)C=[N+]=[N-])C(C)C` (centres unmarked) the EC90 was 0.107 µM (viral replication; Huh-7-ACE2, USA-WA1/2020).
For `CCN(CC)CCOC(=O)C(O)(c1ccccc1)c1ccccc1`, the IC50 was over 10 µM (viral replication, anti-nucleoprotein immunostaining; Vero E6).
For `COc1ccc(C[C@@H]2c3cc(Oc4cc(C[C@@H]5c6cc(O)c(OC)cc6CCN5C)ccc4O)c(OC)cc3CCN2C)cc1`, the CPE inhibition was 0% (viral replication; Vero E6; 0.7812 µM; reference: mean of replicates).
With `O=C(c1ccc(OCCN2CCCCC2)cc1)c1c(-c2ccc(O)cc2)sc2cc(O)ccc12` the IC50 was over 2 µM (viral replication; Huh-7).
`Cn1cnc(Cn2c(=O)[nH]/c(=N\c3cc4cn(C)nc4cc3Cl)n(Cc3cc(F)c(F)cc3F)c2=O)n1` gave an EC90 of 0.16 ± 0.057 µM (viral replication; Omicron BA.1 strain; 48 h).
`CC(C)(Cc1c[nH]c2ccccc12)NCC(O)COc1ccccc1C#N` (centres unmarked) gave an EC50 of 17 µM (viral replication, GFP plate reader screen; cell-based).
The IC50 of `CC(C)(C)[C@]1(O)CCN2C[C@@H]3c4ccccc4CCc4cccc(c43)[C@H]2C1` is reported as over 10 µM (viral replication; A549 expressing ACE2; inactive set pIC50 4).
`CCCCCCC(C)(C)c1cc(O)c([C@H]2CC(=O)[C@H]3C[C@@H]2C3(C)C)c(OC(=O)/C=C/C(=O)O)c1` gave an EC50 of over 50.1 µM (viral replication, high-content imaging screen; cell-based).
For `CC(C)N1CCN(c2ccc(OCC3COC(Cn4cncn4)(c4ccc(Cl)cc4Cl)O3)cc2)CC1` (centres unmarked), the IC50 was over 2 µM (viral replication; Huh-7).
`O=C(NCCN1CCCCC1)c1ccc(-c2ccc(N3CCSCC3)nc2)cc1` gave a maximum response of 52.7% (cytopathic effect; USA_WA1/2020; round 2, 5-point).
For `O=C(/C=C/c1ccc(O)c(O)c1/C=C/c1ccc(O)c(O)c1)O[C@H](Cc1ccc(O)c(O)c1)C(=O)O`, the CPE inhibition was 80% (viral replication; Vero E6; 100 µM; reference: mean of replicates).
`Cc1nn(-c2ccc(Cl)cc2)c2c1C(c1c(Cl)cccc1Cl)C(C#N)=C(N)O2` (centres unmarked) has a viral titre of 568000 IU/mL (Vero; 10 µM).
`CCNC(=O)c1cc2c(-c3cc(C(C)(C)O)ccc3Oc3c(C)cc(F)cc3C)cn(C)c(=O)c2[nH]1` — result for “viral replication inhibition”: “inactive” (concentration not given, Paris laboratory).
The IC50 of `CCN(CC)C(=O)C1(c2ccccc2)CC1CN` (centres unmarked) is reported as over 10 µM (viral replication, anti-nucleoprotein immunostaining; Vero E6).
`Cc1ccc(NS(=O)(=O)c2cccc(C(=O)NC3CCN(c4ncnc5[nH]cnc45)CC3)c2)cc1` gave a relative infection of 89.2% (A549-ACE2, Wuhan-Hu-1; 0.2743 µM; reference: untreated).
`COc1cc(C2C(C#N)=C(N)Oc3c2c(C)nn3-c2ccc(Cl)cc2)cc(OC)c1OC` (centres unmarked) — result for “viral titre log reduction”: 0.651 log10 (Vero C1008; 10 µM; reference: positive control).
The EC50 of `CCCCc1oc2ccc(NS(C)(=O)=O)cc2c1C(=O)c1ccc(OCCCN(CCCC)CCCC)cc1` is reported as over 100 µM (viral replication, high-content imaging screen; cell-based).
The viral titre of `Cc1nn(-c2ccc(Cl)cc2)c2c1C(c1ccc(F)cc1F)C(C#N)=C(N)O2` (centres unmarked) is reported as 1.05e+06 IU/mL (Vero; 1 µM).
`C#C[C@]1(O)CC[C@H]2[C@@H]3CCc4cc(OC5CCCC5)ccc4[C@H]3CC[C@@]21C` has an IC50 of over 2 µM (viral replication; Huh-7).
With `CCc1ccc(Sc2cc(C(=O)NCCCN3CCC(C)CC3)c3ccccc3n2)cc1` the maximum response was 54.1% (cytopathic effect; USA_WA1/2020; round 1, 5-point).
With `O=C(O[C@@H]1Cc2c(O)cc(O)cc2O[C@@H]1c1cc(O)c(O)c(O)c1)c1cc(O)c(O)c(O)c1` the CPE inhibition was 0% (viral replication; Vero E6; 0.7812 µM).
`Cc1nn(-c2ccc(Cl)cc2)c2c1C(c1ccc(Cl)cc1)C(C#N)=C(N)O2` (centres unmarked) gave a viral titre of 325000 IU/mL (Vero; 10 µM).
The maximum response of `COc1ccc(Nc2cc(C(=O)NCCCN3CCN(c4ccccc4F)CC3)c3ccccc3n2)c(OC)c1` is reported as 42.8% (cytopathic effect; USA_WA1/2020; round 2, 5-point).
`NC(=O)c1ncn([C@@H]2O[C@H](CO)[C@@H](O)[C@H]2O)n1` — result for “viral replication inhibition”: “inactive” (Vero E6; concentration not given, NYC laboratory).
For `COc1ccc(N2CCN(CCCNC(=O)c3cc(Nc4ccc(OC)cc4OC)nc4ccccc34)CC2)cc1`, the AC50 was 11.2 µM (cytopathic effect, cell-based CPE; USA_WA1/2020; round 2, 5-point dilution).
With `Cc1nn(-c2ccc(Cl)cc2)c2c1C(c1ccc(-c3ccccc3)cc1)C(C#N)=C(N)O2` (centres unmarked) the viral titre was 525000 IU/mL (Vero; 10 µM).
Under antiviral activity, `[N-]=[N+]=N[C@]1(CO)O[C@@H](n2ccc(N)nc2=O)[C@@H](F)[C@@H]1O` is recorded as “inactive” (A549-hACE2, USA-WA1/2020 nLuc; concentration not given).
With `C[C@H]1[C@H]2CC[C@H]3[C@@H]4CC=C5C[C@@H](N(C)C)CC[C@]5(C)[C@H]4CC[C@]23CN1C` the EC50 was over 25.1 µM (viral replication, high-content imaging screen; cell-based).
`CCC(CC)COC(=O)[C@H](C)N[P@](=O)(OC[C@H]1O[C@@](C#N)(c2ccc3c(N)ncnn23)[C@H](O)[C@@H]1O)Oc1ccccc1` has a viral titre of 110000 IU/mL (Vero; 1 µM).
For `C=CCN1CC[C@@]2(C)c3cc(O)ccc3C[C@@H]1[C@@H]2C`, the IC50 was over 10 µM (viral replication, anti-nucleoprotein immunostaining; Vero E6).
Under “viral RNA level”, `CN(C)C(=N)N=C(N)N` is recorded as 0.234 and 0.252 (SB2; 500 µM, unit not given; reference: DMSO).
With `CC(C)(C)[C@H](NC(=O)C(F)(F)F)C(=O)N1C[C@H]2[C@@H]([C@H]1C(=O)N[C@H](C#N)C[C@@H]1CCNC1=O)C2(C)C` the inhibition was 16% (viral replication, infectious virus; Vero E6; 0.037 µM).
With `NCC(=O)CCC(=O)O` the IC50 was over 2 µM (viral replication; Huh-7).
With `Cc1nn(-c2ccc(Cl)cc2)c2c1C(c1ccc(Br)cc1)C(C#N)=C(N)O2` (centres unmarked) the Ct value was 23.2 cycles (RT-qPCR, measured: viral RNA; Vero; 1 µM; higher means less virus).
With `COc1ccc(C(CN(C)C)C2(O)CCCCC2)cc1` (centres unmarked) the IC50 was over 10 µM (viral replication; A549 expressing ACE2; inactive set pIC50 4).
`Cc1c(O)cccc1C(=O)N[C@@H](CSc1ccccc1)[C@H](O)CN1C[C@H]2CCCC[C@H]2C[C@H]1C(=O)NC(C)(C)C` gave an EC50 of 5.22 µM (viral replication, GFP plate reader screen; cell-based).
With `O=C(Nc1cnccc1Cl)N1CCN(Cc2ccc3c(c2)OC(F)(F)O3)CC1` the inhibition was 40.8% (viral replication; Vero E6, USA-WA1/2020; 2.5 µM).
`CN(C)CC[C@@H](c1ccc(Cl)cc1)c1ccccn1` gave an IC50 of over 10 µM (viral replication; Vero E6; inactive set pIC50 4).
With `CC(C)=CCc1c(O)ccc(C(=O)/C=C/c2ccc(O)cc2)c1O` the CPE inhibition was 0% (viral replication; Vero E6; 25 µM; reference: mean of replicates).
For `CN(C)CCC(c1ccc(Cl)cc1)c1ccccn1` (centres unmarked), the IC50 was over 2 µM (viral replication; Huh-7).
`COc1cc(OC)c2c(=O)[nH]c(-c3cc(C)c(OCCO)c(C)c3)nc2c1`: “viral replication inhibition” “inactive” (Vero E6; concentration not given, NYC laboratory).
For `CCC(CC)COC(=O)[C@H](C)N[P@](=O)(OC[C@H]1O[C@@](C#N)(c2ccc3c(N)ncnn23)[C@H](O)[C@@H]1O)Oc1ccccc1`, the EC50 was 4.64 µM (viral replication, GFP plate reader screen; cell-based).
For `NCCC(O)(P(=O)(O)O)P(=O)(O)O`, the IC50 was over 2 µM (viral replication; Huh-7).
With `Cc1noc2c(NC3CCOCC3)cc(-c3cccc(C(F)(F)F)c3)nc12` the efficacy was 41.3% (cytopathic effect; USA_WA1/2020; round 1, 5-point).
`NC(=O)C(c1ccccc1)(c1ccccc1)[C@@H]1CCN(CCc2ccc3c(c2)CCO3)C1` has an EC50 of over 100 µM (viral replication, high-content imaging screen; cell-based).
`O=C(NCCCN1CCCCCC1)c1ccc2c(c1)sc1nc(-c3ccccc3)cn12` has an AC50 of 14.1 µM (cytopathic effect, cell-based CPE; USA_WA1/2020).
`CN1[C@@H]2CC[C@H]1C[C@@H](OC1c3ccccc3CCc3ccccc31)C2` gave an EC50 of 7.41 µM (viral replication, GFP plate reader screen; cell-based).
`CN(CCc1ccc(Cl)c(Cl)c1)CCN1CCCC1`: “viral replication inhibition” “inactive” (concentration not given, Paris laboratory).
`COc1ccccc1-c1cccc(CN2CCCC(C(=O)NCc3ccc(F)cc3)C2)c1` (centres unmarked) has an efficacy of 67.2% (cytopathic effect; USA_WA1/2020; retest, 8-point, duplicates).
The EC90 of `calpain inhibitor III` is reported as 0.698 µM (viral replication; Huh-7-ACE2, USA-WA1/2020).
`COc1cccc2c1C(=O)c1c(O)c3c(c(O)c1C2=O)C[C@@](O)(C(C)=O)C[C@@H]3O[C@H]1C[C@H](N)[C@H](O)[C@H](C)O1`: “viral replication inhibition” “inactive” (concentration not given, Paris laboratory).
For `Cc1ccccc1CN1C(=O)c2ccccc2Sc2ccc(C(=O)NCCCN3CCOCC3)cc21`, the efficacy was 32.2% (cytopathic effect; USA_WA1/2020; retest, 8-point, duplicates).

Repeated from above:
`COc1cc(OC)c2c(=O)[nH]c(-c3cc(C)c(OCCO)c(C)c3)nc2c1`: “viral replication inhibition” “inactive” (Vero E6; concentration not given, NYC laboratory).
For `CCC(CC)COC(=O)[C@H](C)N[P@](=O)(OC[C@H]1O[C@@](C#N)(c2ccc3c(N)ncnn23)[C@H](O)[C@@H]1O)Oc1ccccc1`, the EC50 was 4.64 µM (viral replication, GFP plate reader screen; cell-based).
For `NCCC(O)(P(=O)(O)O)P(=O)(O)O`, the IC50 was over 2 µM (viral replication; Huh-7).
With `Cc1noc2c(NC3CCOCC3)cc(-c3cccc(C(F)(F)F)c3)nc12` the efficacy was 41.3% (cytopathic effect; USA_WA1/2020; round 1, 5-point).
`NC(=O)C(c1ccccc1)(c1ccccc1)[C@@H]1CCN(CCc2ccc3c(c2)CCO3)C1` has an EC50 of over 100 µM (viral replication, high-content imaging screen; cell-based).
`O=C(NCCCN1CCCCCC1)c1ccc2c(c1)sc1nc(-c3ccccc3)cn12` has an AC50 of 14.1 µM (cytopathic effect, cell-based CPE; USA_WA1/2020).
`CN1[C@@H]2CC[C@H]1C[C@@H](OC1c3ccccc3CCc3ccccc31)C2` gave an EC50 of 7.41 µM (viral replication, GFP plate reader screen; cell-based).
